# Experimental data collected from several papers.
# Parts stem from different laboratories: compare values within a part only.

# Block 1
# Target: Protein C-ets-1 (ETS1, Homo sapiens, UniProt P14921, residues 1-441, Y397A, full length assumed)
# Method: protein-binding microarray
# Molecule type: double-stranded DNA, one strand shown
# Matrix: in vitro
# Concentration: not given
# Setting: k-mer, scored over probes, only values ≥0.25
# Reading: higher = stronger binding
# Residues (chain): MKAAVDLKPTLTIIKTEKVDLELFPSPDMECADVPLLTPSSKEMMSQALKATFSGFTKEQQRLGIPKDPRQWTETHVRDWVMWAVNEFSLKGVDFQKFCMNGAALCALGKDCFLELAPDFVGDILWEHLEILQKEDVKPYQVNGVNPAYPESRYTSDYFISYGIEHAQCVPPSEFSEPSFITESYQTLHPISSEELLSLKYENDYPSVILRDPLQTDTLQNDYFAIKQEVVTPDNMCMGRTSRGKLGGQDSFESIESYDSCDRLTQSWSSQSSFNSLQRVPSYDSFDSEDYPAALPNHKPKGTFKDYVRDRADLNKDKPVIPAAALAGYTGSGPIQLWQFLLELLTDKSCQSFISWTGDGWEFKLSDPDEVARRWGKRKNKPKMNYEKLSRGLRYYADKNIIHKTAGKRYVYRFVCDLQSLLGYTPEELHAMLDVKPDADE
Sequence,E-score
GGGTGGGA,0.302
AAAGGCAA,0.264
ACGCCAAA,0.3
ATTTGCGG,0.255
CTGTTGCA,0.261
GTTTACGA,0.258
CGTTTGTA,0.264
ACGTCAAC,0.27
ATCGTGCG,0.269
AAATTGGC,0.32
ATGTCGAC,0.338
CCTGACAA,0.363
AGTTCCGG,0.281
CAGTTGCA,0.334
GTCAACAA,0.291
CAGCGGCA,0.25
AATACAAA,0.297
AACTTCCG,0.473
ACGTTGTC,0.257
AATCAACA,0.28
TGGCGGAA,0.297
CATCCGGA,0.269
CAAACTTC,0.271
CAAAACGC,0.323

# Block 2
# Target: RNA binding protein fox-1 homolog 2, RRM domain, GST-SBP tag (RBFOX2, Homo sapiens, UniProt O43251-10, residues 100-194)
# Method: RNA Bind-n-Seq
# Molecule type: RNA
# Matrix: in vitro
# Concentration: 365 nM
# Setting: natural RNA segment, single round, ends assumed
# Baseline: no-protein control
# Reading: higher = stronger binding
# Constant ends, left off below: GGGAGUUCUACAGUCCGACGAUC … UGGAAUUCUCGGGUGCCAA
# Target sequence (chain): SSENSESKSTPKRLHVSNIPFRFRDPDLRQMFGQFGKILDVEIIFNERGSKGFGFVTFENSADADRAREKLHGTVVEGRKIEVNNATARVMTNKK
Sequence,RBNS enrichment (R)
GCUUUAAAGGUGGUAGUGAUUUUUAUUUUGGAAGAAUCAUGUUACCUUUUUGUUAAAUAAAAUUUGUACUCAAAUGAUGAUGUCACUGUUUUUAAUGUGCAGGUAUUGAA,0.556
AAUUGGGAAGUGCCUAGAGUCCAGGCCCCGAUCAUCAAAGAUGUCUAUAUUGUAUAAUAUUUAAAGUUAUUUUUAAUUUUCUCAAACAAUAUGAGAAUAUCUAUCUGGCA,0.651
UAAUUAUGAUUUUCUCUUCAUACGAGCUGUUAGAAAGCUCAGCAUUAAAUUUGUGGCUCACCUCUAGCAAAUAUAUAACACUUAAUGAUGUGACUGUCCUGAUUCUAAAA,0.703
ACACUCAAAGGCUGUGUGACUUGUCCUGUCCUGUGGCACCGAAGCCCUAGGUAGCUGGCUGUUUUGAUGAGGUCAUUUGAAUCAUGGGAGUGUCCUUACACUACACUAUC,0.502
ACAUCAUUGUGAGUUAGAUCAGUAUUAUGACCGCUGUCUUAGGGAAGGCCUGGGAACAGGAGUGUGCAGGCUGUCCUGAAGAGAGGCUGAGGACAGUGUGAAUAAUUGUA,1.53
GCAGUACUAUUAAUGACCUCCCCAGGGCAGGCAUGAGUUGUGUCCUGAGUGGAACAUCUGGCCAUGCAUGGUUGUGAUGGGCCAUUGCUUUCGCUGCUUUAGAGCACCAC,10.6
ACAUCUCCACCCCACUUACCAAUAAAAGCUACCCUUUCCACCCAGUGGAAUGGGAUGGCAGAAAACCAACAGUGGCCCAGAUGGACCUCCAAGUCUGCUUUUCAGGUGUA,0.294
CUGGGCAAAAGUCUGAAGAUCUGAAAUAACUUUAUAUCAAACCAUUGAUCAAUAAACAGCUACUAAUAAGUGUUUGGUCCUGUUGAGCAGUAACUAAAAUAAGGGAAGAU,0.318
AGGUGCUACAUUUCUAUCUGUUGGUUUCAAUUCUGCCAUAUUUCAUGUCUAGCCUUUAGAGUGGCCAAUCAUGUUUUACUUUCAUUUAAGCACUGGUAGUCUGGAGUACC,0.448
AAAACGAUGCCUGCAAAAUUUGAAGGAAUGCAAUUCUGAUUUGCCAUUUAUCAGGGAAAACUGAAAGCAUUUUUCUUAUAACUUUUUUUCUUUUUCUUUUUUUUUGGAGG,1.16
UGUAAUAGUUAAGAAAUCAUUUUUUCUGAAUGACUUAAAAAAUUUGAUUGAAAAUUUGGCAAAUUACAUUAUUUGUACUAGAAUUUGACCUAAAACACUUUUUAUGUUUG,2.5
GGUGGAUUUUCGUUGUCCGUGGAAGAACACAUGGAUCUCUCUGGCUUUCUCACCCAAGUUGGCCACUUACGCUAAUCCUGGAAGUAUGAUCACUUUUGAACCUGCCCCUU,0.277

# Block 3
# Target: TAR DNA-binding protein 43, full length, His tag (TARDBP, Homo sapiens, UniProt Q13148, residues 1-414)
# Method: RNA Bind-n-Seq
# Molecule type: RNA
# Matrix: in vitro
# Concentration: 20 nM
# Setting: 6-mer, flanks averaged, single round
# With: 150 mM KCl
# Baseline: input library
# Reading: higher = stronger binding
Sequence,6-mer enrichment (R)
UCUCGG,0.854
CCCCCU,0.69
GCGUGC,1.48
CGUGCG,1.47
AAACAG,0.696
GAAUAG,0.964
UAUGGA,0.89
ACUCGC,0.604
ACCAUU,0.622
AAAGAU,0.591
GCGUUA,0.804
GCCCCU,0.705
GAGUUC,0.728
GACGCC,0.887
UCAAAU,0.616
CUUCCC,0.593
CACCGA,0.693
CAACUC,0.585
GGACGC,1.64
UAGGCG,1.49
AUAUCA,0.562
UCUUCA,0.533
CGGAGC,1.39
UACACU,0.579
CGGGGC,3.89

# Block 4
# Target: Interferon regulatory factor 7, full length, phosphomimetic (IRF7, Homo sapiens, UniProt Q92985, residues 1-503, S101K/S471D/S472D/S475D/S476D/S477D/S483D/S484D/S487D)
# Method: protein-binding microarray
# Molecule type: double-stranded DNA, one strand shown
# Matrix: in vitro
# Concentration: 250 nM
# Setting: 60-bp whole probe
# With: salmon DNA 0.4 mg/ml
# Baseline: random background probes
# Reading: higher = stronger binding
# Constant ends, left off below: GCCTAGCAC … GTCTTGATTCGCTTGACGCTGCTG
# Target sequence (chain): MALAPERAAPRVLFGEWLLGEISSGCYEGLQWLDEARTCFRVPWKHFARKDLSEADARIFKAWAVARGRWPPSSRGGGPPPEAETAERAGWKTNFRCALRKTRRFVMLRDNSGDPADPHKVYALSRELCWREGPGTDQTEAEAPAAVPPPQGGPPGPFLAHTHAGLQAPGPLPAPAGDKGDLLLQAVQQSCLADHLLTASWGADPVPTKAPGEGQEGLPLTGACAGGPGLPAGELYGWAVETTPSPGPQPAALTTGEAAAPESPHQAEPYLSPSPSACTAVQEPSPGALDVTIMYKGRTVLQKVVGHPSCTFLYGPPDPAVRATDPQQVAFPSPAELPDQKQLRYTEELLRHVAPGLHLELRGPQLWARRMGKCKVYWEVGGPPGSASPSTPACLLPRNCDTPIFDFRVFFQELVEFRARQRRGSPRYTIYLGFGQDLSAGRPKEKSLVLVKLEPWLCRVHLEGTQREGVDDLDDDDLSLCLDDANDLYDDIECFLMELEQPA
Sequence,log fluorescence
CCACTTTCAGTTCTCCCTTTGTGCTAG,3.34 z-score
GACGGTATCGGGTTTCGGTACGTGCTA,4.55 z-score
TTAGGTTTCAGACTGGGTTAGTGCTAG,0.544 z-score
TTAGGACTGGCCTATCGGTTAGTGCTA,-0.259 z-score
GTTTATTTATTTTTACATTAGTGCTAG,1.46 z-score
TCAATTTTGTCCTCCCCTACTGTGCTA,0.384 z-score
GACGAAATCAGTCTCGAGACGTGCTAG,0.549 z-score
GACGGTTTCGACACAGGGGACGTGCTA,4.38 z-score
CTGCTTGAAACTCTTACCCCGTGCTAG,-0.125 z-score
GACGGTATACTTATCCTGACGTGCTAG,-0.169 z-score
TTAGGTTTCCTACTGCTTCAGTGCTAG,1.15 z-score
AGATTTTTATCAAATGTGGGAGTGCTA,-0.376 z-score
TTGGGTTTCGGTTCCGGTTAGTGCTAG,11.6 z-score
CACAGGCTGCACAGAATGTAGTGCTAG,-0.931 z-score
TTAGATTCCAGTCTCGATTAGTGCTAG,3.39 z-score
TTAGAACTGAGTATCGCTTAGTGCTAG,-0.114 z-score
GACGAACCGAGTATCGAGACGTGCTAG,0.695 z-score
ATGCTACTGCATTTTTTTTTGTGCTAG,-0.633 z-score
TACGATTTCAGTCTCGAGACGTGCTAG,0.952 z-score
TTAGAACTGAGAATGGATTAGTGCTAG,-0.195 z-score
GACGGTGCCCTTTTCCTGACGTGCTAG,0.348 z-score
TTAGGTATCGGGTATCGGTGAGTGCTA,0.673 z-score
ATAGGACTGGGTATCGGTTAGTGCTAG,0.948 z-score

# Block 5
# Target: Ras GTPase-activating protein-binding protein 1, full length (G3BP1, Homo sapiens, UniProt Q13283)
# Chain of UniProt Q13283 (whole entry, looked up): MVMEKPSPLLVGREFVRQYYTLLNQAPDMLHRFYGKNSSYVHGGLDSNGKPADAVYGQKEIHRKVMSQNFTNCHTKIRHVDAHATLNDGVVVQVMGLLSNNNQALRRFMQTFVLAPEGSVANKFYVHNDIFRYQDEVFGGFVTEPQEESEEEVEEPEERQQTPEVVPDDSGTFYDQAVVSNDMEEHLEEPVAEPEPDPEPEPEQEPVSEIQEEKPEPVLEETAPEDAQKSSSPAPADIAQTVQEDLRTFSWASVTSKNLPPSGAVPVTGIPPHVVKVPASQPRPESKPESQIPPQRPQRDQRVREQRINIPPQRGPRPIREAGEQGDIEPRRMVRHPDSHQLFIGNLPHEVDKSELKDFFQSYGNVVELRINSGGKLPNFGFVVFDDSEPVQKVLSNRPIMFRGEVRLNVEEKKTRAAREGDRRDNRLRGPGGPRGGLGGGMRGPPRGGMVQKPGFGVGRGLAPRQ
# Method: RNA Bind-n-Seq
# Molecule type: RNA
# Matrix: in vitro
# Concentration: 200 nM
# Setting: whole 134-nt RNA, ends assumed
# With: 150 mM KCl
# Baseline: input library
# Reading: higher = stronger binding
# Constant ends, left off below: GGGAGUUCUACAGUCCGACGAUC … UGGAAUUCUCGGGUGUCAAGG
Sequence,log2 enrichment
CAAGUCCUGUGCUACACAUCGUAUGUACCGAAUCGGUUUUUUUGGUUUGGUUUGGAAAGUAUUAUGUUACGCCGUUCGGAUCUGCACUUC,-0.956
GCAGGAAGUAAAAACAAAUGGAAAUGCUUCGGAUAGUGGCAGGGGUGGGGGUUGCUAAGGAAAGGGUGGGAUGGGAGUCGGUAAAGAGUU,0.981
UCCCAGCCGAGGACGUCGGAUGUCAUCGUCCUUGCUGCUUUGCCACCCCAUUCCCGUCAAUAAAGUGGUUUGAACCCAACCCUGGUGUCG,-0.911
UGGGAGGUGGAUUUUGUUUAUUUUUUUAGCUCAUUUCCAGGGGUGGUAAUUUUUUUUUAAUAUGUGUCAUGAAUAAAGUUGUUUUUGAAA,0.079
UUUCUCCACAGGAGCCCCGCAAGUGAGCCAGCCACUGCGAGAGCAGAGUGAGGAUAUACCUGGAGCCAUUUCCUCUGCCCUGGCAGCCAU,0.713
CUGUGCUACACAUCGUAUGUACCGAAUCGGUUUUUUUGGGGUUUUUUUGGGGUUUUUUUGGAAAGUAUUAUGUUACGCCGUUCGGAUCUG,-0.891
UCAAGUCCUGUGCUACACAUCGUAUGUACCGAAUCGGGGAAAGGAAAGGAAAGGAAAGUAUUAUGUUACGCCGUUCGGAUCUGCACUUCC,-0.861
UUCCGGAAGAAGAAGCUCCGAUUUGGCCGGAGCCGGAUCCACGAGUGGGGUCUGUUUGCCAUGGAACCCAUUGCUGCUGACGAGAUGGUC,-1.17
GCCUGGCGCUGGCCAACAAUAGCACCCUCACCAUUGGCACCAUCGAUGAGAUCCAGAAGCUGCACAUUCGCACAGUUCCCCUCUAUGAGU,1.13
UGUGCUACACAUCGUAUGUACCGAAUCGGGCCCCCCCGGGGCCCCCCCGGGCCCCCCCGGGGAAAGUAUUAUGUUACGCCGUUCGGAUCU,-2
CAAGUCCUGUGCUACACAUCGUAUGUACCGAAUCGGAAAGGUUUGGUUUUUUUGGAAAGUAUUAUGUUACGCCGUUCGGAUCUGCACUUC,-0.863
CAAGUCCUGUGCUACACAUCGUAUGUACCGAAUCGGGAAAAAGGGUUUGGGUGGGAAAGUAUUAUGUUACGCCGUUCGGAUCUGCACUUC,1
CACAGACAACACGCACCCACACAGACACAGAGGGAAGGGGUUGGGAUGGGGACAGGGUGCACAGCAGGGCGGGGUAGGAAACCAGCCCCU,1.71
CCUGUGCUACACAUCGUAUGUACCGAAUCGGUUUUUUUGGGUUUUUUUGGGGUUUUUUUGGAAAGUAUUAUGUUACGCCGUUCGGAUCUG,-0.892

# Block 6
# Target: Histone acetyltransferase KAT6A, winged helix 2, GST fusion (KAT6A, Homo sapiens, UniProt Q92794, residues 85-181)
# Method: protein binding microarray
# Molecule type: double-stranded DNA, one strand shown
# Matrix: in vitro
# Concentration: not given
# Setting: 8-mer, flanks averaged, mean of 2 arrays, mostly near background
# Baseline: not given
# Reading: higher = stronger binding
# Construct (chain): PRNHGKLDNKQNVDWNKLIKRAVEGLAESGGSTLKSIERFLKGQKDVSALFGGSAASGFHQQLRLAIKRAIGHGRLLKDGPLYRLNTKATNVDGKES
Sequence,E-score
CACTAGGA,-0.0831
AGGTACCG,0.0586
CGCGCTAA,0.0545
TAGCGCCA,0.149
TGACCGCA,0.113
CAAAGGAA,-0.0328
AAGAGCAG,-0.0498
TCCTTAAA,-0.121
GAGGGGTA,-0.00183
AGGAGTTA,0.00012
ACATATGA,-0.0395
ACGTAATG,-0.244
GCCCTCTA,-0.0382
AAGTGTTG,0.0174
AGGTTGGA,0.0774
ACCGATAC,0.0401
CGACTGTA,-0.192
AGCTCGGC,0.053
